Measurements collected from several papers.
Each numbered part is a random draw from the data of one study; scales do not carry over between parts. Positions count from the first letter of the parent shown.

Block 1
Target: CRIPT, C-terminal peptide
Method: DHFR complementation, deep sequencing
Matrix: yeast
Notes: single substitutions, model-inferred values
Baseline: wild type
Direction: higher = weaker binding
Starting sequence: ERBIN, PDZ domain 1 (human); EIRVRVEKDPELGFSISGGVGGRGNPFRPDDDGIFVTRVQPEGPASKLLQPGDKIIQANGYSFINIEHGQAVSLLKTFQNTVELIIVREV; partner TKNYKQTSV
Variant | binding free energy change [kcal/mol]
R3D | 0.275
G19L | 1.21
R3Q | -0.0188
A58F | 1.49
P44S | 0.566
D53V | 0.631
E89L | 0.0318
R38G | 0.253
G22E | -2.49
E7Y | 0.252
A58G | -0.0318
R5P | 0.186
L75F | 0.058
F14I | -1.21
T37Q | 1.23
N80Y | 0.173
E7L | 0.0466

Block 2
Target: Interferon regulatory factor 7, full length, phosphomimetic (IRF7, Homo sapiens, UniProt Q92985, residues 1-503, S471D/S472D/S475D/S476D/S477D/S483D/S484D/S487D)
Method: protein-binding microarray
Molecule type: double-stranded DNA, one strand shown
Matrix: in vitro
Tested at: 2200 nM top
Notes: 60-bp whole probe
Together with: salmon DNA 0.4 mg/ml
Baseline: random background probes
Direction: higher = stronger binding
Shared flanks, not repeated: GCCTAGCAC … GTCTTGATTCGCTTGACGCTGCTG
Residues (chain): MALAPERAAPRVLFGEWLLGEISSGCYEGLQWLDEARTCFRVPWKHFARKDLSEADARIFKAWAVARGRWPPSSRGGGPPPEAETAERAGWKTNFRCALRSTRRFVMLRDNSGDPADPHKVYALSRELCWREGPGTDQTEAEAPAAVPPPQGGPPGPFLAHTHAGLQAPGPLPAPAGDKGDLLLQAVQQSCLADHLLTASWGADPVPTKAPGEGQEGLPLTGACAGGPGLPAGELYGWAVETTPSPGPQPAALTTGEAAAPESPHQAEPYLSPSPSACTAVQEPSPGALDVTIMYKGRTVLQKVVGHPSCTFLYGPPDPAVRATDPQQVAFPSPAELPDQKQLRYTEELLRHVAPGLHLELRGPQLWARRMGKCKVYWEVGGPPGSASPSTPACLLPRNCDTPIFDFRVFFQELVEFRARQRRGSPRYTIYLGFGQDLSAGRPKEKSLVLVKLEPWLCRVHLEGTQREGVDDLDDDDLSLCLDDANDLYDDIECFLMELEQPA
Sequence | fitted relative affinity
TGAGTAATTACATAATTACGGTGCTAG | -0.115 z-score
TTAAGTTTCGGGACTGGGTTAGTGCTA | 4.21 z-score
TGTTACATTTATATCTTTGCGTGCTAG | 1.15 z-score
TTAGGTATCTTTCTCCTTTAGTGCTAG | 1.11 z-score
TTAGGTATCCTACGGCTTTAGTGCTAG | 0.0779 z-score
GACGGTTTCCTTCACCTGACGTGCTAG | 1.95 z-score
GACGGTATTGGTTTCGGGACGTGCTAG | 3.39 z-score
TTAGGTATCCTTATCCTTCAGTGCTAG | 0.896 z-score
GACGGTCTCCTTTTCCCGACGTGCTAG | 1.85 z-score
TTAGGACTGGGCTTCGGTTAGTGCTAG | -0.537 z-score
GCCATTGTGGATCTTGCAGAGTGCTAG | 0.29 z-score
TTAGGTATCGACTCTGGGTTAGTGCTA | 0.455 z-score
TCAAATCCCACATTTGATACTGTGCTA | 0.779 z-score
TTAGGACTGGGTTTCGGCTAGTGCTAG | 0.662 z-score
TACGGTATCGGTCTCGGGACGTGCTAG | 0.433 z-score
TTTCCTATGTCATTTACATTGTGCTAG | 3.47 z-score
TTAGAACTGAGACTGGATTAGTGCTAG | -0.652 z-score
TTTTCATTTTTTTTCATCATGTGCTAG | 3.69 z-score
TTAGGTTTCGGTTCCCGTTAGTGCTAG | 12.3 z-score
TTAGGTTTCGGGTATCGTTTAGTGCTA | 5.92 z-score
GGTGTTTTACAGGTTCTCTTTGTGCTA | 0.846 z-score
TTAGGACTGGGACTGGGTAAGTGCTAG | -1.03 z-score
GACGGACTGGGTCTCTGGACGTGCTAG | -0.898 z-score

Block 3
Target: ABI1, truncated, D143A, DHFR fusion (Arabidopsis thaliana)
Method: DHFR PCA, deep sequencing
Matrix: yeast
Notes: methotrexate growth selection, single substitutions
Together with: (+)-ABA 710 µM
Baseline: wild-type fitted maximum
Direction: higher = stronger binding
Starting sequence: PYL1, truncated, DHFR fusion (Arabidopsis thaliana); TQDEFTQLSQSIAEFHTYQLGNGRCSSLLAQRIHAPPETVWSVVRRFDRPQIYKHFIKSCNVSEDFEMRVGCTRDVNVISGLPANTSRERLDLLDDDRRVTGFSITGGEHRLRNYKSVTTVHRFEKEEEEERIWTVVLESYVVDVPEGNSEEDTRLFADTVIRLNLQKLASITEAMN; partner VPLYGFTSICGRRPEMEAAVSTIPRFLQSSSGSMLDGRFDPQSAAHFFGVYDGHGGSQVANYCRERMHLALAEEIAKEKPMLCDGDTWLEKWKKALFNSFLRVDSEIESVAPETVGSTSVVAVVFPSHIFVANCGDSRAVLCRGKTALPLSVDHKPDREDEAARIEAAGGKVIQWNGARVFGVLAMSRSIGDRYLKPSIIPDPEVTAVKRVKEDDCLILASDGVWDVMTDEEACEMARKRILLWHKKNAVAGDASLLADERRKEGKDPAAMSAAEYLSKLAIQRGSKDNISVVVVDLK
Variant | relative binding score
T73S | 98.9%
V143A | 88.2%
Q10E | 109%
Q167E | 115%
I57R | 4.33%
C60I | 94.4%
G148T | 95.5%
Q7S | 103%
F124L | 112%
L94M | 103%
D75F | 100%
G23H | 101%
F66M | 96.2%
L20Q | 103%
S80F | 74.1%
E129R | 105%

Block 4
Target: CCNE1, cyclin fold, Cln2 fusion (human)
Method: yeast growth competition, sequencing
Matrix: yeast
Notes: strong parent motif
Baseline: not given
Direction: higher = stronger binding
Starting sequence: RBL1 docking peptide (human); GSAKRRLFGEDPP; partner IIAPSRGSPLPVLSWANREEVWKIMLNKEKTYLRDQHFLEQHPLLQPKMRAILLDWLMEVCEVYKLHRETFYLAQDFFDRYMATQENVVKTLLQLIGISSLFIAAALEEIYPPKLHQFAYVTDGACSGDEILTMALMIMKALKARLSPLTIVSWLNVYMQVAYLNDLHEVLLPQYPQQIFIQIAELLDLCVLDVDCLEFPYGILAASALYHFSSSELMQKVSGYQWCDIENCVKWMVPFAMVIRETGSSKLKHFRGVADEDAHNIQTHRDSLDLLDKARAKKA
Variant | normalised enrichment score
GSAKRRLFGIDPP [E10I] | 5.11
GSAKRRLFGEDPN [P13N] | 6.15
GSAKRRLFWEDPP [G9W] | 7.33
DSAKRRLFGEDPP [G1D] | 6.11
GGAKRRLFGEDPP [S2G] | 6.21
GSAKRRLFGEDGP [P12G] | 5.68
GSAVRRLFGEDPP [K4V] | 7.11
GSAKRRLFGEDPC [P13C] | 5.94
GSAKRELFGEDPP [R6E] | 1.88
GSAKRLLFGEDPP [R6L] | 2.51
GSAKRRLFGYDPP [E10Y] | 4.08
GSAKVRLFGEDPP [R5V] | 0.42
GSHKRRLFGEDPP [A3H] | 4.78
GSAKRTLFGEDPP [R6T] | 2.07
GSAKRRLFGEPPP [D11P] | 4.47
GSAKNRLFGEDPP [R5N] | 0.505
GSAIRRLFGEDPP [K4I] | 4.7
GSAERRLFGEDPP [K4E] | 0.618
GSAKIRLFGEDPP [R5I] | 0.323
GSAKTRLFGEDPP [R5T] | 0.33
GSWKRRLFGEDPP [A3W] | 3.69
GSAKRRLFPEDPP [G9P] | 6.46
GSAKRRLFGEHPP [D11H] | 4.59
GSAKRRCFGEDPP [L7C] | 0.791
GSAKRRLFGERPP [D11R] | 3.74

Block 5
Target: Sal-like protein 4, full length isoform A (SALL4, Homo sapiens, UniProt Q9UJQ4, residues 1-1053)
UniProt Q9UJQ4, sequence (whole entry, looked up): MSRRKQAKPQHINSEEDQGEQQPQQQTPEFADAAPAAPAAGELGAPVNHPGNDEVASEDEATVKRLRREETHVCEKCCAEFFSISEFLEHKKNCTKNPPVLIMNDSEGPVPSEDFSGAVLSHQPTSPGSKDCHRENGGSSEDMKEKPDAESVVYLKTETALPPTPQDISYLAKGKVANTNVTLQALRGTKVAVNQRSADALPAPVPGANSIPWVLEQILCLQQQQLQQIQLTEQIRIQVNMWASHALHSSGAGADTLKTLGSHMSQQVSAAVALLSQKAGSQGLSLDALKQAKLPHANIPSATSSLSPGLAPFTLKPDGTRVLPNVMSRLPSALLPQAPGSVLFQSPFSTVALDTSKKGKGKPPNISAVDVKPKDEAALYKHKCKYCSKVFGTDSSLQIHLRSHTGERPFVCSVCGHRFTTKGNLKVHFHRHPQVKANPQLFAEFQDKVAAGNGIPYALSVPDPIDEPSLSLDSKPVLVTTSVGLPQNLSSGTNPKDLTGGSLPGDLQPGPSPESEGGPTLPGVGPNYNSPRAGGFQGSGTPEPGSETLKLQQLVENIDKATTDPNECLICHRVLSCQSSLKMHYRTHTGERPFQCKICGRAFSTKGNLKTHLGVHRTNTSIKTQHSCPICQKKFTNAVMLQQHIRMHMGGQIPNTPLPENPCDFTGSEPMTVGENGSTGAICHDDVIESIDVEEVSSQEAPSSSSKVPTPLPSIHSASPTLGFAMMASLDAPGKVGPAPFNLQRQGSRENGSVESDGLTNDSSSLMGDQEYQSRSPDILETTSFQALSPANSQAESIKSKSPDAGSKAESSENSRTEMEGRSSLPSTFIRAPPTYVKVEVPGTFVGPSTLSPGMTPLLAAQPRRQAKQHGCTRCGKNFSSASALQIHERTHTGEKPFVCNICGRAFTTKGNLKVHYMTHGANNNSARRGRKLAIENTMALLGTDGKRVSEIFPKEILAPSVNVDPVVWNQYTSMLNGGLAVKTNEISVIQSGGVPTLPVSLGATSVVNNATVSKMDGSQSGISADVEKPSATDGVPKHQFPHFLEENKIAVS
Method: universal PBM
Molecule type: double-stranded DNA, one strand shown
Matrix: in vitro
Tested at: 600 nM
Notes: 8-mer, flanks averaged, mean of replicates
Direction: higher = stronger binding
Sequence | E-score
CAGTCTGC | -0.206
CGAACTCG | -0.19
AGGACCCA | -0.286
GCCGCTAA | -0.26
GCTTGCCA | -0.0407
ATAAAGTG | 0.283
ATCTCAAG | 0.0689
GCGCTACA | 0.0606
ACATGTTG | 0.191
AAAACTTC | 0.146
CCTTTACC | -0.114
CCGGACGG | -0.308
CGTCAAAG | 0.0403
CGCGGCAA | -0.2
GTGTGATA | 0.236
GTACAGGA | -0.0676
AAAGGAGG | -0.0577
ATGGCAAG | 0.0408
CAGAAAAC | 0.00859
AACTCTGC | -0.159
GAACAAGA | 0.049

Excerpt of the above (block 4):
Variant | normalised enrichment score
GSAKRRLFGYDPP [E10Y] | 4.08
GSAKVRLFGEDPP [R5V] | 0.42
GSHKRRLFGEDPP [A3H] | 4.78
GSAKRTLFGEDPP [R6T] | 2.07
GSAKRRLFGEPPP [D11P] | 4.47
GSAKNRLFGEDPP [R5N] | 0.505
GSAIRRLFGEDPP [K4I] | 4.7
GSAERRLFGEDPP [K4E] | 0.618
GSAKIRLFGEDPP [R5I] | 0.323
GSAKTRLFGEDPP [R5T] | 0.33
GSWKRRLFGEDPP [A3W] | 3.69
GSAKRRLFPEDPP [G9P] | 6.46
GSAKRRLFGEHPP [D11H] | 4.59
GSAKRRCFGEDPP [L7C] | 0.791
